Results collected from several papers.
Each numbered part is a random draw from the data of one study; scales do not carry over between parts. Positions count from the first letter of the parent shown.

Series 1
Target: MAFK, bZIP domain (human)
Technique: DHFR protein complementation
Medium: yeast
Notes: single substitutions, most at no-binding floor
Relative to: wild-type JUN-FOS pair
Reading: higher = stronger binding
Endpoint: binding fitness
Starting sequence: JUN, bZIP domain (human); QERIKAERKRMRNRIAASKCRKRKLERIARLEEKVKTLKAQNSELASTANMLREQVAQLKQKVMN; partner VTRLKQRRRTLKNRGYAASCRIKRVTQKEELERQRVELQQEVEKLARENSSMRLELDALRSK
K34M: -1.57 natural log
L31I: -1.42 natural log
S43K: -1.48 natural log
S43L: -1.37 natural log
E44F: -1.46 natural log
N42P: -1.51 natural log
A40F: -1.59 natural log
L52V: -1.5 natural log
A57H: -1.5 natural log
M51W: -1.48 natural log
R53K: -1.44 natural log
V35E: -1.55 natural log
S47C: -1.51 natural log
L52D: -1.5 natural log
T37N: -1.49 natural log
R53A: -1.39 natural log
S47L: -1.45 natural log
R53W: -1.49 natural log
A40W: -1.49 natural log
A40G: -1.48 natural log
E54P: -1.48 natural log
E32G: -1.53 natural log
T37S: -1.5 natural log
E33D: -1.38 natural log
E54R: -1.46 natural log

Series 2
Target: CCND1, cyclin fold, Cln2 fusion (human)
Technique: yeast growth competition, sequencing
Medium: yeast
Notes: weak parent motif
Relative to: not given
Reading: higher = stronger binding
Endpoint: normalised enrichment score
Starting sequence: CDKN1B docking peptide (human); PSACRNLFGPVDH; partner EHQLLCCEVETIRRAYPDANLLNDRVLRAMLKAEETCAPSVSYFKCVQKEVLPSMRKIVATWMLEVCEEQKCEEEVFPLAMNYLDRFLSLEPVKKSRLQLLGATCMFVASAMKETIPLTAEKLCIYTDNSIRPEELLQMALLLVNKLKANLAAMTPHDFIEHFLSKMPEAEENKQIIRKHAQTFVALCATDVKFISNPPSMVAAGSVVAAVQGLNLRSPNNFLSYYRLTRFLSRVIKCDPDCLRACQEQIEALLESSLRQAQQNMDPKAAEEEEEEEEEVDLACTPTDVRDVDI
PSACRILFGPVDH [N6I]: 1.78
PSALRNLFGPVDH [C4L]: 0.872
PSACRNLYGPVDH [F8Y]: -0.558
PSACRNLFGGVDH [P10G]: 0.793
PSACRKLFGPVDH [N6K]: 1.42
PSHCRNLFGPVDH [A3H]: 0.55
PSACMNLFGPVDH [R5M]: 0.672
PSACRNLFGPQDH [V11Q]: 0.274
PHACRNLFGPVDH [S2H]: 0.312
PIACRNLFGPVDH [S2I]: 0.782
PSACRNLFGPVDE [H13E]: 1.06
PSACRNLFGEVDH [P10E]: 0.889
PSACRNLFGPVDD [H13D]: 0.853
PSAWRNLFGPVDH [C4W]: 0.497
PSACRNLCGPVDH [F8C]: 0.13
PSACWNLFGPVDH [R5W]: 0.185
PSACRNLFGPVDG [H13G]: 0.574

Series 3
Target: ABI1, truncated, D143A, DHFR fusion (Arabidopsis thaliana)
Technique: DHFR PCA, deep sequencing
Medium: yeast
Notes: methotrexate growth selection, single substitutions
Together with: (+)-ABA 2500 µM
Relative to: wild-type fitted maximum
Reading: higher = stronger binding
Endpoint: relative binding score
Starting sequence: PYL1, truncated, DHFR fusion (Arabidopsis thaliana); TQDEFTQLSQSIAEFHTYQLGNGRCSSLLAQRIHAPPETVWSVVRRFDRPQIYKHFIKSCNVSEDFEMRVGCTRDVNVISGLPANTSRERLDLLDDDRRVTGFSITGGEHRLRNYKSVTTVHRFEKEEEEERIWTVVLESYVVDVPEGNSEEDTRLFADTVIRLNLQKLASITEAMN
S150K: 90.3%
C25N: 56.6%
G71W: 65.4%
V40C: 81.7%
V43C: 87.2%
A84H: 68.2%
E128W: 95%
E139F: 69%
E64G: 96.6%
L93M: 87.9%
G107V: 71.4%
W41I: -3.45%
E130P: 107%
F157L: 92.9%
V62K: 82.5%
N114D: 97.9%
I52E: 93.1%
A13R: 96.5%
Q167I: 90.7%
Q31G: 66%
V121Q: -1.2%
T39H: 99%

Series 4
Target: RNA binding protein fox-1 homolog 2, RRM domain, GST-SBP tag (RBFOX2, Homo sapiens, UniProt O43251-10, residues 100-194)
Technique: RNA Bind-n-Seq
Form: RNA
Medium: in vitro
Tested at: 365 nM
Notes: natural RNA segment, single round, ends assumed
Relative to: no-protein control
Reading: higher = stronger binding
Endpoint: RBNS enrichment (R)
All sequences stand within: GGGAGUUCUACAGUCCGACGAUC … UGGAAUUCUCGGGUGCCAA
Residues (chain): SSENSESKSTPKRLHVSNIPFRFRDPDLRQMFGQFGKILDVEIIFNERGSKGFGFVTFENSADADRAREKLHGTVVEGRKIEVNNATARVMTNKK
GUAAGUUUUGAGAAAUACGAGUCUGUCAGAGCGGCCAUAAGCCAUAAAGAGUCAAUCUCUUAAUUAUAUUUUUCAUCAUGUAAACAAGUUUCCCAUUUCCCUUUCUUAGA: 1.32
UUCUUACUAAUAUCCAUGGUUUGCAGGUUCUGUUAGGCCCUUUCCUUCUCCUUACUUCUUAUCCCCAACUCCCUACCCACCCCUCUUCAGUUUUCAGAUUGGAGAUUCAA: 0.588
UUGUCAUUGUUACAUUCCAGUGUUUCUGCCUCUUGGCAUGCUUAAAGCACGGCUUACUUCAUCUGCUCCUUACACACUAAAAUGCUCUUAGUGUGCUCAACUACAGAGAU: 0.67
UCAAGUCGCAUAUGCUGUACUGUUCCUCCUGCAAAUGUGGGGAAAGAAGAGGGAGAUACUAGAGGAACUGAGGCUCCACCCAUUCAUUCAGUUGCUCUAAGCACCAGAGG: 0.457
UGACUGCUUGGCUACGUACAGUAUAAGUAUUUCCUUUCUGUGACAUUGUGACAUACAAUUUAAACACUCAUUGGGCUGCUGUGCUGUGUAAAGAAAGAGGGACUGCAGUG: 0.45
UUCGCUCUACCUCUGACCUCUGGAGAUUUGGCUGCCUCCUUCUCAAGCUCUAAGACUCAAAGAAAUGGAACCUCUGCCCCAAACACUAGAGAAGCAGGAGAACAGACAAU: 0.373
UUUUAAUACUAAACCUUACAGUCAGGAUUUGGAGUUCUUACAUCAUAUAUAAUAUGUAAUAAACCAGGAUGAAUAUUGCAUAUUCAAUAUCUCCAGUUUUAAUAGUGGCA: 1
UGGCAGAAGUGUAGCAGCGUUACACAUGUGUGCGAAGCAGAUCGCAGGUUCCACGCCAUCUGCAUGGCCUGCAGGAGCUUCUGCUGCUGACCCCAUGCUGAGUGGCCAGU: 0.234
AGAAUAUAAAUGAAUGCUUAAACAUUUGAAUACAGAUUCCUCCGGAUUGUUGAAUUCACUCAACUAGAAGUAAUAGGCGAUUUUAAAUCUUUAUAAAUGAUCUUGGGUAA: 1.24
GGGCGAGCAGGUGUGACAUUGGCUAAGGAAGUGUUUCCAGAGUGUGCGUCUCGGGUGACCCUUGCUGUCUUUUCUCUACACCCAUGGAUUCUCUGAAAAUACUUUGCAGU: 0.478
UCCUGAAGUAGACUAAAGCCCGGCUGAAAAUUCCGAGGAAAACAAAACAAACGAAUGAAUGAACAGACACACACAAUGUUCCAAGUUCCCCUAAAAUAUGACCCACUUGU: 0.93
UCUGUAUUAGAAGAAAAUAAGGGUAAAAUCAGGCUGAACUGCAUGUAUAUGGCUCCACUGUGGCUUGUGACACUUUUAAAAUCAUCCGUAUGUCAGUGUAUCUGGAUACA: 26.7

Series 5
Target: Prothrombin, mature alpha-thrombin (F2, Homo sapiens, UniProt P00734)
Technique: aptamer microarray, sandwich
Form: DNA with 2'F-ANA
Medium: in vitro
Tested at: 200 nM
Notes: whole 15-mer aptamer, many near background
Together with: Cy3 exosite-II aptamer, 400 nM
Reading: higher = stronger binding
Endpoint: mean fluorescence intensity
Oligonucleotide: GGTTGGTGTGGTTGG
2'F-ANA at 3 4 9 10 11 12 13 14 15: 181 a.u.
2'F-ANA at 2 3 4 5 6 7 8 9 10 11 12 13: 82.5 a.u.
2'F-ANA at 1 2 3 4 6 8 9 10 14 15: 55.4 a.u.
2'F-ANA at 2 5 6 8 13 14: 61.1 a.u.
2'F-ANA at 1 5 6 7 9 10 11 12 14: 105 a.u.
2'F-ANA at 1 2 3 4 5 9 10 11 12 13 14 15: 52.7 a.u.
2'F-ANA at 1 2 3 12 14 15: 93.1 a.u.
2'F-ANA at 4 6 7 8 9 10 12 15: 121 a.u.
2'F-ANA at 1 2 3 6 14 15: 66.7 a.u.
2'F-ANA at 1 3 5 6 8 9 11 12 13 14: 50 a.u.
2'F-ANA at 1 4 8 9 11 12 15: 271 a.u.
2'F-ANA at 4 5 6 8 9 11 14: 52.9 a.u.
2'F-ANA at 8 9 10 12 13 14: 106 a.u.
2'F-ANA at 2 3 4 8 10 11 14 15: 152 a.u.
2'F-ANA at 1 4 5 6 8 11 13 14: 49.7 a.u.
2'F-ANA at 3 8 9 11 12 14 15: 559 a.u.
2'F-ANA at 1 2 7 9 10 12 13 14: 46.1 a.u.
2'F-ANA at 6 8 9 11 13 14 15: 145 a.u.
2'F-ANA at 2 6 7 8 11 12 13: 513 a.u.
2'F-ANA at 2 5 8 9 10 12 14 15: 53.7 a.u.
2'F-ANA at 9 12 14 15: 242 a.u.
2'F-ANA at 1 2 4 8 9 10 13 14 15: 50.2 a.u.
2'F-ANA at 1 2 5 6 7 10 11 12 13: 47.6 a.u.
2'F-ANA at 3 4 5 8 10 11 12 14: 58.2 a.u.
2'F-ANA at 2 4 5 6 7 8 11 12: 121 a.u.
